Measured values pooled from the literature.
A part holds a random share of what one study measured.
Chain of UniProt P22607 (whole entry, unmodified, looked up): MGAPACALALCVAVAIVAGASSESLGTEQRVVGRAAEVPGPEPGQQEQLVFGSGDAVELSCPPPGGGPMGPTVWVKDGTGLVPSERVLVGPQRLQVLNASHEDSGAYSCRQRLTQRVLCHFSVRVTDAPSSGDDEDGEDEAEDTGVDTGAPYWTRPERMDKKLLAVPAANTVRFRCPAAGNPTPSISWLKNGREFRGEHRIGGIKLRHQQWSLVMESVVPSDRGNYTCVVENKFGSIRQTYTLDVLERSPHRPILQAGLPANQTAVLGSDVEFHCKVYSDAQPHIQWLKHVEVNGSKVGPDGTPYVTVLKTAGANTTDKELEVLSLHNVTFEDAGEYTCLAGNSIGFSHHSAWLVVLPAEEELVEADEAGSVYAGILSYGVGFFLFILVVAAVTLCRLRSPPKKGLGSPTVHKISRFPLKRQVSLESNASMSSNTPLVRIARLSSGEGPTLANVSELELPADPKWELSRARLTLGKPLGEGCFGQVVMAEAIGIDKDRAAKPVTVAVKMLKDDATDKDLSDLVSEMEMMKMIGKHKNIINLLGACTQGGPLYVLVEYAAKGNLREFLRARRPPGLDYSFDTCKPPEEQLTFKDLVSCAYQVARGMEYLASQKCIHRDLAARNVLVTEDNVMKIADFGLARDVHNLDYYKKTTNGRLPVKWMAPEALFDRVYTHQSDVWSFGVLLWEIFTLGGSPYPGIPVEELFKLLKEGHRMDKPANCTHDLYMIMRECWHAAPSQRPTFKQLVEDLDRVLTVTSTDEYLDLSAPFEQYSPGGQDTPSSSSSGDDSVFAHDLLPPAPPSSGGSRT
Chain of UniProt P36897 (whole entry, looked up): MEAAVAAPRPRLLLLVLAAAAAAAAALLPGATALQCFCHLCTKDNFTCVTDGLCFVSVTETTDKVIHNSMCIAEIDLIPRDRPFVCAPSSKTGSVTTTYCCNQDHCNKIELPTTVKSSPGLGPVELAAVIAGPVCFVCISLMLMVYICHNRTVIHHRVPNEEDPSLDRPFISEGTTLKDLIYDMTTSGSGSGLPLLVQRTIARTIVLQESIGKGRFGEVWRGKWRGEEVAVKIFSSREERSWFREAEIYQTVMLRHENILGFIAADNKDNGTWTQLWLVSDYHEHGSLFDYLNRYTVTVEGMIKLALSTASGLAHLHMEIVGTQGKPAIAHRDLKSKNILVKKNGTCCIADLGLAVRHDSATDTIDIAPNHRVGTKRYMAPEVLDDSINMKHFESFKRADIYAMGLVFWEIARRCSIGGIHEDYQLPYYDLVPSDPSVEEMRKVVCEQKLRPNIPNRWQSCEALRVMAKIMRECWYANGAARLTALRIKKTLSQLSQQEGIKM
Chain of UniProt Q04912 (whole entry, looked up): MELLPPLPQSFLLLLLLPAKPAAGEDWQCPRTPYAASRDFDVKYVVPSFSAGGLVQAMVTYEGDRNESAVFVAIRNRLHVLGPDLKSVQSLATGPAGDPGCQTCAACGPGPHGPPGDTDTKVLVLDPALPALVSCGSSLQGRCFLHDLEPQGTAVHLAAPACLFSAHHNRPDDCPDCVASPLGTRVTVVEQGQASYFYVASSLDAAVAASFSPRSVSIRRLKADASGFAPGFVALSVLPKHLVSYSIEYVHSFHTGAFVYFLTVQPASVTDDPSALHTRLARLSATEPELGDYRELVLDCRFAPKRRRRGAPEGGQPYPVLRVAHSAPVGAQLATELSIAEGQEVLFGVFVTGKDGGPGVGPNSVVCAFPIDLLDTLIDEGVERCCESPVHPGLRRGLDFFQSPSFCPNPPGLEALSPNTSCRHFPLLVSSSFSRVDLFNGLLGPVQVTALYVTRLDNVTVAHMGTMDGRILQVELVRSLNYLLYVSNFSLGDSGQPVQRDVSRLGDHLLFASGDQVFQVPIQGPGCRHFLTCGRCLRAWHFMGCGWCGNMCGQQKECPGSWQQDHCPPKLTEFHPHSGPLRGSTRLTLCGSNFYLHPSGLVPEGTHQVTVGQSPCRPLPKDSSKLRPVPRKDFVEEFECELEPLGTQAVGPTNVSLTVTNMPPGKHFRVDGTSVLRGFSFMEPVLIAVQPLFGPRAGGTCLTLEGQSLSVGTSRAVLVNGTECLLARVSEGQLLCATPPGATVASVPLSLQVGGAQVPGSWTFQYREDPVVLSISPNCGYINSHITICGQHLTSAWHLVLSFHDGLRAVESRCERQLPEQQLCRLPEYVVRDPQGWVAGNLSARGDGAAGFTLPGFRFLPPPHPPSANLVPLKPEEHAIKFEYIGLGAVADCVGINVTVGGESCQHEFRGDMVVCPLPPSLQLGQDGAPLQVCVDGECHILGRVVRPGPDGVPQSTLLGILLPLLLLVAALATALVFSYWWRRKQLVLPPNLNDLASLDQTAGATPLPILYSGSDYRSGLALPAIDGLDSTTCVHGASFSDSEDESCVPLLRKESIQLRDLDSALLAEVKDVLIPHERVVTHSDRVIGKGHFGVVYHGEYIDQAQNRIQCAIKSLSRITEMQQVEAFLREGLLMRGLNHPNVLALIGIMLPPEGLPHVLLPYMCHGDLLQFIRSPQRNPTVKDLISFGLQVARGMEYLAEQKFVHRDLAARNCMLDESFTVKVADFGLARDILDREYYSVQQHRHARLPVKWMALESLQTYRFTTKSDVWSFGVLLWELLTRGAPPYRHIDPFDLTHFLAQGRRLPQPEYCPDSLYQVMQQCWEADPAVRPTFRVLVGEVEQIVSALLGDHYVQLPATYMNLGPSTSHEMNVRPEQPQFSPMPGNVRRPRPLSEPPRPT
Chain of UniProt O43283 (whole entry, looked up): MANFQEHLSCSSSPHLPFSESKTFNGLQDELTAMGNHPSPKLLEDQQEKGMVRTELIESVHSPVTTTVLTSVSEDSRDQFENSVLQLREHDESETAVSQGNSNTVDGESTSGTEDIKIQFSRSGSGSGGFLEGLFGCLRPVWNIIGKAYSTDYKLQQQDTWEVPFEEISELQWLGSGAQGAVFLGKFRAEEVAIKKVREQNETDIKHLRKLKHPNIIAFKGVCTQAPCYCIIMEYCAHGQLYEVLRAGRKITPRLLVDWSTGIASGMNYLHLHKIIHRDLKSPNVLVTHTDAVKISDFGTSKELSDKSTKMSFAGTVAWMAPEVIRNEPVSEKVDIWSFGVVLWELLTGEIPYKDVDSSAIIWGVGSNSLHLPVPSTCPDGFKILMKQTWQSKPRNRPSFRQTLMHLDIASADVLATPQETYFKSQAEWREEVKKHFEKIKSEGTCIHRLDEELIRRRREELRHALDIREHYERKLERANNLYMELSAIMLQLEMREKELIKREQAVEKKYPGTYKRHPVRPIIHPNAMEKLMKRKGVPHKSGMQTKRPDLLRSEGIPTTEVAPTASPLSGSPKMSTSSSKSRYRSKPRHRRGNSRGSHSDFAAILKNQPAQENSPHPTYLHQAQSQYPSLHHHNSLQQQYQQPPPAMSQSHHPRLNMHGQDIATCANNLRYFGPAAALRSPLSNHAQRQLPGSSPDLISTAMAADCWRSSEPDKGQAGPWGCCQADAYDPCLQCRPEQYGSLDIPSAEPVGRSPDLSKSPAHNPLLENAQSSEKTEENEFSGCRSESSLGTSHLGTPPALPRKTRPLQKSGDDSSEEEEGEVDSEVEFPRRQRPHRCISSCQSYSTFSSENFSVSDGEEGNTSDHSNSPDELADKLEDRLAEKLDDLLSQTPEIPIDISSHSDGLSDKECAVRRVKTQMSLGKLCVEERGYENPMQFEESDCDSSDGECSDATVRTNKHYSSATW

Sample 1 — method: universal PBM; molecule type: double-stranded DNA, one strand shown; sample: in vitro; concentration: 600 nM; reading: higher = stronger binding
Target: Sal-like protein 4, full length isoform A (SALL4, Homo sapiens, UniProt Q9UJQ4, residues 1-1053)
Chain of UniProt Q9UJQ4 (whole entry, looked up): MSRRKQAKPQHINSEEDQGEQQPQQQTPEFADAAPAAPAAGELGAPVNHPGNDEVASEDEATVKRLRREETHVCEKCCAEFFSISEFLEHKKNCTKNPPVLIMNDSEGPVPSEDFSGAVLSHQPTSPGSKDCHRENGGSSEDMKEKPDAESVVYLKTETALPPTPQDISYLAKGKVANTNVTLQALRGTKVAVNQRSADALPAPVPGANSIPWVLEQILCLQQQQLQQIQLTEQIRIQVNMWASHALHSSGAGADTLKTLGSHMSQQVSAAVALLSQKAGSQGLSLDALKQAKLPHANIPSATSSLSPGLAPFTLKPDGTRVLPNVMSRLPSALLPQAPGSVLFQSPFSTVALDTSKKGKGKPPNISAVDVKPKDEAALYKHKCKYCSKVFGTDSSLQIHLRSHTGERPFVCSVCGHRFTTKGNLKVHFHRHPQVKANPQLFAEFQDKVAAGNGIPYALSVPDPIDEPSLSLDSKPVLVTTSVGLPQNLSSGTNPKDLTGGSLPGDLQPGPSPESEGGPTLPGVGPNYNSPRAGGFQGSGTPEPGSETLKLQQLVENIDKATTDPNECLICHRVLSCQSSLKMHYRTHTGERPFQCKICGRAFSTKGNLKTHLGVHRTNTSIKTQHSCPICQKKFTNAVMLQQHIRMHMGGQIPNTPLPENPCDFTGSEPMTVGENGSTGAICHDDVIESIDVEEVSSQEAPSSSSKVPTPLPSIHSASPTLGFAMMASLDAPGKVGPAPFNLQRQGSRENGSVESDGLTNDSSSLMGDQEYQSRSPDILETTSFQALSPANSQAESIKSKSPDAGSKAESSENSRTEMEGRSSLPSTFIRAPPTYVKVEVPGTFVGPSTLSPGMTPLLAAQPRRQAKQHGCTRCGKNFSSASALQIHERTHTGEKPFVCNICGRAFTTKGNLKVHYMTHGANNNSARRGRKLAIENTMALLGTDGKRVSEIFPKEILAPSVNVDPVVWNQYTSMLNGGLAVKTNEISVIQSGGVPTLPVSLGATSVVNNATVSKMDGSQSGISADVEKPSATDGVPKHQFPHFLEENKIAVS
Setting: 8-mer, flanks averaged, mean of replicates
For `AGCCTTTG`, the E-score was -0.101.
With `TCGTAACA` the E-score was 0.236.
The E-score of `TCAGATAA` is reported as 0.202.
`ACTTAGAG` gave an E-score of 0.117.
For `ACCTATAG`, the E-score was 0.114.
With `AAAGCTTT` the E-score was 0.0887.
The E-score of `GAATGTCC` is reported as -0.0667.
With `ACCCTTAG` the E-score was -0.0972.

Sample 2 — Structure (SMILES): CC(C)(O)c1cncc(-c2nc3ccc(F)cc3n2C2CC2)c1; effect on: cell-free assay; method: competition with immobilised ligand; concentration: 1 µM
MAP3K13 (Homo sapiens, UniProt O43283) — remaining binding: 100%.
It gave 100% for remaining binding (FGFR3 (Homo sapiens, UniProt P22607, G697C)).
MST1R (Homo sapiens, UniProt Q04912) — remaining binding: 100%.

Sample 3 — method: RNA Bind-n-Seq; molecule type: RNA; sample: in vitro; concentration: not given; reference: input RNA pool; reading: higher = stronger binding
Target: RING finger protein unkempt homolog, zinc fingers 1-6, GST-SBP tag (UNK, Homo sapiens, UniProt Q9C0B0, residues 30-357)
Setting: RNA with constant flanks, human-mouse chimeric sites, ends assumed
Construct (chain): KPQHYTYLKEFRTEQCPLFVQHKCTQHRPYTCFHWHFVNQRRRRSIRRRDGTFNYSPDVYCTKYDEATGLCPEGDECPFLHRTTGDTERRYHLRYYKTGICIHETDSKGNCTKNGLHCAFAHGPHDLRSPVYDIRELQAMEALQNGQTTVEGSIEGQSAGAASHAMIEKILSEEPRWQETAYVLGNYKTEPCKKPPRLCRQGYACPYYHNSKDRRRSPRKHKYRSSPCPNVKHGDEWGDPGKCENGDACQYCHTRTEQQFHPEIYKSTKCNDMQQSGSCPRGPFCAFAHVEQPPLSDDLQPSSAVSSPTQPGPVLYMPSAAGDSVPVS
With `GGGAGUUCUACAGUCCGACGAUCUCUUAACUUAUUCAUUUAACUUAUUUUUAUAGCUAGAUAAAUAUUGUUAGUCUUAGAGAGUAGUUCACAUUUUUUGAGAAGCAUGCCCUCCCUGUCCAUUGGGCCCAUAACAUGACCCAGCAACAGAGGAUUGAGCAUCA` the bound/input enrichment was 10.5 ratio.
`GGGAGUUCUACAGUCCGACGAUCCCCUCCCCGGGCCACCCGCCCGCCCAAGCUCCCCGCCGAGAUCCAGGUUUCUUCUUAUUUCAUAGCAAAUAAGAAAAAUGUUCUACGCACAUUUUGUUCUCAGUAAACGAGGGCCUCUGGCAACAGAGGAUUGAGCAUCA` has a bound/input enrichment of 0.44 ratio.
For `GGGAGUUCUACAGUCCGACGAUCCUGUGUGGCUUACUAAAAUGGCUUGUAAAGAAGUUUUUCCAAGCUGUAACCCAUGCUGUUAUUAUAGUUGCUGCAAAAUGUUCUUCCUAUUGAUGUUUUUAUUUGUUAACUGAAGGUCUCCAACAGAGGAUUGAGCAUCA`, the bound/input enrichment was 0.283 ratio.
The bound/input enrichment of `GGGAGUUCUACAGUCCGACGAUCUGGGCACUCUAUCAGAUAUAUUAAUUUUUUAAUGUAGAUGUAAUUUUAAAAAUGAAUGGCUACUUUACACGUUUAACUAGGGUUUUACUAUAUAUGUGUGUGUAUAUAUAUAUAUAUAUACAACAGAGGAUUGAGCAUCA` is reported as 22.8 ratio.
`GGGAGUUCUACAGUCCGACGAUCAUCCAGUACUCGAAUCACAAAGAACUAAAGACAGAUAAUACAUUAAACCAACGUGCGCAGGCAGUUCUUCAAGCUGUGACAGCUGUCCAGACAGCAAAUACACCUCUUAGUGGCACCACACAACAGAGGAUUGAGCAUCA` gave a bound/input enrichment of 0.434 ratio.
For `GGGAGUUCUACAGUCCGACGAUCAGGAGGAGGUUAAAGGGUGAAAAUGGGGUGGAAGACUGUGUCAUGGCUCUGGAGACACUGUUCAGUGUCCUGCUUUCUCUGUGCAGACUGAUGGCCCCCUACACACCCUUUCUGACUGAGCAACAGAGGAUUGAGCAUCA`, the bound/input enrichment was 0.0498 ratio.
The bound/input enrichment of `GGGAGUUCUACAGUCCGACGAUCUCUUAACGUCCAUUUAAAACUUAUUUUUAUAGCUAGAGCAAUAUUGUUAGUCUUAGACAAUAGCUCACAUUUUUUGAGAAGCAUGCCCUCCCUGUCCAUUUGUCUUAUAACAUGACCCAGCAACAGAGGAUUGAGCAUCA` is reported as 15.1 ratio.
`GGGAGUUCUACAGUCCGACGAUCGGCUGCUACUAUUCUCCCUGGAGUGGCUGGAGUUCCCGCCGGAGCGCGGCCAGACUAAUUUUAGAAAAUGCCAAGUAGGAAGUUUGUUGAGGGUGAAGUGGUAAGAGGCCGAUGGCCUGGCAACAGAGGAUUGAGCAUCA` gave a bound/input enrichment of 7.42 ratio.

Single results of other studies
`Cc1cncc2cccc(S(=O)(=O)N3CCCN(C(=O)CN)C[C@@H]3C)c12` gave a remaining activity of 100% (TGF-beta receptor type-1 (TGFBR1, Homo sapiens, UniProt P36897); enzyme activity, inhibitor; 0.5 µM; reference: control).

Some of these lines once more (sample 3):
For `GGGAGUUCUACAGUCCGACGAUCCUGUGUGGCUUACUAAAAUGGCUUGUAAAGAAGUUUUUCCAAGCUGUAACCCAUGCUGUUAUUAUAGUUGCUGCAAAAUGUUCUUCCUAUUGAUGUUUUUAUUUGUUAACUGAAGGUCUCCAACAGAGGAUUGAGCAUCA`, the bound/input enrichment was 0.283 ratio.
